Published values from different studies.
Protocols differ between the studies behind these lines. ± gives the spread as reported.
KDR: Vascular endothelial growth factor receptor 2 (KDR, Homo sapiens, UniProt P35968)
Chain of UniProt P35968 (whole entry, looked up): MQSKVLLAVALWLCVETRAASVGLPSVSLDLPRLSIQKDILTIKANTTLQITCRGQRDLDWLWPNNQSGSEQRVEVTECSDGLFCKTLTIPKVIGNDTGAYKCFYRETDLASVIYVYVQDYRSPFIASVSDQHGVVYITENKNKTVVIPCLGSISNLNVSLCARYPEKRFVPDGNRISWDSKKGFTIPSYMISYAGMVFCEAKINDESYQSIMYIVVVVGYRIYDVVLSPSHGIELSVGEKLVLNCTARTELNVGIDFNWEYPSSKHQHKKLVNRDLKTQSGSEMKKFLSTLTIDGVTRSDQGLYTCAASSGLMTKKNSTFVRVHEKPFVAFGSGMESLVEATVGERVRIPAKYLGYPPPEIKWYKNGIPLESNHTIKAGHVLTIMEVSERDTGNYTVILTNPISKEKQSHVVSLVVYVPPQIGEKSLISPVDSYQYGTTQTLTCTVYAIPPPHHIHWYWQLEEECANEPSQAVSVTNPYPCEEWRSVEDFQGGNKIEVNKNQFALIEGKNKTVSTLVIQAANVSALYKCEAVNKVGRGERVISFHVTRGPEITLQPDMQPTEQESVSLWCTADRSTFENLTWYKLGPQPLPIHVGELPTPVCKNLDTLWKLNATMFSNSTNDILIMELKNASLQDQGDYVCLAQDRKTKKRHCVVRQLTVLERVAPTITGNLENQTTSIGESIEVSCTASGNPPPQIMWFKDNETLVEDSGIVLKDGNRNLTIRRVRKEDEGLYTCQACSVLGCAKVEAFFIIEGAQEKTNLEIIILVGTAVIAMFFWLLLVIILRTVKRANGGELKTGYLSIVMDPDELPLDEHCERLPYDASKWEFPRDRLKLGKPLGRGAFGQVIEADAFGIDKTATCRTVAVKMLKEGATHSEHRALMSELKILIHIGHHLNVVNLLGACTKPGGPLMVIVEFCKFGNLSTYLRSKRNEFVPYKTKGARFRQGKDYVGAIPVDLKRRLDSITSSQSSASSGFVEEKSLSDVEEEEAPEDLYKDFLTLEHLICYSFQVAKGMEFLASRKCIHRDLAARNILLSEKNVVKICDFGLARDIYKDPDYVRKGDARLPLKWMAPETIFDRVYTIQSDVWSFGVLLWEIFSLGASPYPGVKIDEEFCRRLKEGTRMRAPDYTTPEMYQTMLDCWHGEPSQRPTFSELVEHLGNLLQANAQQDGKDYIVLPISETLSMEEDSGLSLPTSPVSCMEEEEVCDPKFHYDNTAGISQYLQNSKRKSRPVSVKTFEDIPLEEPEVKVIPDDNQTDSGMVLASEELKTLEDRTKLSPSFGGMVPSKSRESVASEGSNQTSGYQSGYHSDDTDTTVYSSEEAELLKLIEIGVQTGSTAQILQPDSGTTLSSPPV
Chain of UniProt Q9BYW2 (whole entry, looked up): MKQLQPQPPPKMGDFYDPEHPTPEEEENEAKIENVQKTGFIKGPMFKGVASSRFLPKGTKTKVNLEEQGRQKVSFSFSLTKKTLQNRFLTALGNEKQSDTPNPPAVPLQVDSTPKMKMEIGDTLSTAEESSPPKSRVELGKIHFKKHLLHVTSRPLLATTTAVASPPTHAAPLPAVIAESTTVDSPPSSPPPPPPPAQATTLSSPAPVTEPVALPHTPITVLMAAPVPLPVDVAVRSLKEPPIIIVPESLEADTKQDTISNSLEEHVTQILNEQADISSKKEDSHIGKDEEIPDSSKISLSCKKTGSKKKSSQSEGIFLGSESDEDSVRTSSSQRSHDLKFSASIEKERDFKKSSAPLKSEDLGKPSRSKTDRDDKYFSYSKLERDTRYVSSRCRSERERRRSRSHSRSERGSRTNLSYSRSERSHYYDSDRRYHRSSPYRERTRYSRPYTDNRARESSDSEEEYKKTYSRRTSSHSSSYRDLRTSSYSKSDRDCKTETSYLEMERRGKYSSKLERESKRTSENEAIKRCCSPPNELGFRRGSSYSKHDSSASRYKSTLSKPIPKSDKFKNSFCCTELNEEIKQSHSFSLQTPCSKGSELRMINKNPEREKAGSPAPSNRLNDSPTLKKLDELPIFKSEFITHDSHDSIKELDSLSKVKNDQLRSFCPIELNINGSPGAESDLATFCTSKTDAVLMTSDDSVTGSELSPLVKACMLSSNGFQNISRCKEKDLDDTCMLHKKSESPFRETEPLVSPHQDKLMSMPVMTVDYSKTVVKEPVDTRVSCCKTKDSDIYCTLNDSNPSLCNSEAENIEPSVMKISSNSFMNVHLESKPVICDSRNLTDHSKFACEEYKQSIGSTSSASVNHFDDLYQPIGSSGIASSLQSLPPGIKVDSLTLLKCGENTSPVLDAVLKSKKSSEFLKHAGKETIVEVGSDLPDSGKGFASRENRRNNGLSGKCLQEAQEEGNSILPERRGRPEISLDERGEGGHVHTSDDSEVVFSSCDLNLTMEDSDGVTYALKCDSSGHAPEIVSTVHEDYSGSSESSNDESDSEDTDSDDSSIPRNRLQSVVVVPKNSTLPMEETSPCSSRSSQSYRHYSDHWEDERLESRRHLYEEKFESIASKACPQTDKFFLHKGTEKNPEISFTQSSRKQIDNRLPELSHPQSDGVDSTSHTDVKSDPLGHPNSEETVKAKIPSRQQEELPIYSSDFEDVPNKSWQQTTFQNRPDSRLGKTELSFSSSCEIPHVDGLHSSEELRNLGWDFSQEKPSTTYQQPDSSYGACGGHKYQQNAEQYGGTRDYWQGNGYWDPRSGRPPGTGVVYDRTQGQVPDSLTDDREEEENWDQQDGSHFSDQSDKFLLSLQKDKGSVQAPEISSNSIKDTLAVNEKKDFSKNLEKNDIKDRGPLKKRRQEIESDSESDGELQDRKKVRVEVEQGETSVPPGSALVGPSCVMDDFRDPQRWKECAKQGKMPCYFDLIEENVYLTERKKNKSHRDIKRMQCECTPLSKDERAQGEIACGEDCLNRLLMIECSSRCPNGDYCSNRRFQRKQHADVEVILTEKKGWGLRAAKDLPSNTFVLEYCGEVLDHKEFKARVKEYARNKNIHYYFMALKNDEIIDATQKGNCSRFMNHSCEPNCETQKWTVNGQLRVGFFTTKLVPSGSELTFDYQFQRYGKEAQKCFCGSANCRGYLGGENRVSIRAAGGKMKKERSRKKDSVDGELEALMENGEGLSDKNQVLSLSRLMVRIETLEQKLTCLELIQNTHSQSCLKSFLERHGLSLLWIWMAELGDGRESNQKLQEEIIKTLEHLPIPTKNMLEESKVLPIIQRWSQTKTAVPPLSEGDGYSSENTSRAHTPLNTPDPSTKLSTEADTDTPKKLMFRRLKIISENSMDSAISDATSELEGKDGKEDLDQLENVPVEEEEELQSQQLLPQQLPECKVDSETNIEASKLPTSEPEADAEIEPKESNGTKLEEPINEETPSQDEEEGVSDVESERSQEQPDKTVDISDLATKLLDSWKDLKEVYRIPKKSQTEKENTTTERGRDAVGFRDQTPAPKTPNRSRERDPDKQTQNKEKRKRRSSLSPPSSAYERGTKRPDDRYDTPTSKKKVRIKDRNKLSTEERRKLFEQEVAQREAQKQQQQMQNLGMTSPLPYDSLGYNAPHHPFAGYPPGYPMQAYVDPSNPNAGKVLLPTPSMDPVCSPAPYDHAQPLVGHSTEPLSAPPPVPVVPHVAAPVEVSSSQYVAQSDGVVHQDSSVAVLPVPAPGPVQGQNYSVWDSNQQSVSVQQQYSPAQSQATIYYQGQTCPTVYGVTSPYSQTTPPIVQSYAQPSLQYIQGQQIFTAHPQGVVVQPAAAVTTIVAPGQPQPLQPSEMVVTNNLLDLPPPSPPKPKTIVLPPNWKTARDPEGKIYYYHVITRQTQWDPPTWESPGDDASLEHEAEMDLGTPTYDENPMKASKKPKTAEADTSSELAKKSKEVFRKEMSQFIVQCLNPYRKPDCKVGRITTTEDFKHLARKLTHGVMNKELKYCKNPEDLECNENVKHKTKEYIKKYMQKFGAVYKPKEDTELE
Chain of UniProt Q9Y6L6 (whole entry, looked up): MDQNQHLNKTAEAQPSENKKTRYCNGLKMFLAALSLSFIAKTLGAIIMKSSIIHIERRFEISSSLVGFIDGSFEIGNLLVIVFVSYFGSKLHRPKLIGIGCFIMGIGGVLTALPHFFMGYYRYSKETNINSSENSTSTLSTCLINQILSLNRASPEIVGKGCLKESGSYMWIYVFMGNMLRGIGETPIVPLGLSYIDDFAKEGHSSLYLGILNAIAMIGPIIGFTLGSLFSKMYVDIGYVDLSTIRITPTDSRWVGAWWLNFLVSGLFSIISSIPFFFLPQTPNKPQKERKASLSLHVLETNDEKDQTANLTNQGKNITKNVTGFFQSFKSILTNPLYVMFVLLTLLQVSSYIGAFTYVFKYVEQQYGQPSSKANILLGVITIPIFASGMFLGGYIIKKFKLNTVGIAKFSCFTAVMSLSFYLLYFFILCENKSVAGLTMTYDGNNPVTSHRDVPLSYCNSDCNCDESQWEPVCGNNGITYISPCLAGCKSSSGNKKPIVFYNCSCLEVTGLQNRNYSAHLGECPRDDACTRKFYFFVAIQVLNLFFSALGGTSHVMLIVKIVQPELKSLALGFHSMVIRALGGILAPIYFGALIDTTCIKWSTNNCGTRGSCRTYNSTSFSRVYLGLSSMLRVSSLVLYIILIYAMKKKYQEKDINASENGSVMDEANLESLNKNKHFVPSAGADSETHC
Chain of UniProt P40306 (whole entry, looked up): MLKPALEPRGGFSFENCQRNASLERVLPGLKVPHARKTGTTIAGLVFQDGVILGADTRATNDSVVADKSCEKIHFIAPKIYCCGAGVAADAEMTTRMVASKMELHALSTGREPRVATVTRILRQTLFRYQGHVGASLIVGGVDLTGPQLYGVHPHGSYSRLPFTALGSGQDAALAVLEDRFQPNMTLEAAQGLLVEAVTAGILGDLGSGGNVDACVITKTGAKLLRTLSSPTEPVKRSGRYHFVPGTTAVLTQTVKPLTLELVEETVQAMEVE

Cc1nn(-c2cccc(N)c2)c(=O)c2cnc(Nc3ccc(N4CCNCC4)cc3)nc12  IC50 (KDR; enzyme activity, inhibitor): > 10 µM
CC1(C)C(=O)N=C2C1=C(O)C(=O)c1ccccc12  IC50 (SETD2 (Homo sapiens, UniProt Q9BYW2); enzyme activity, inhibitor): 1 µM
Cc1ccc2nc(C)n(/N=C/c3ccc(C(=O)O)cc3)c(=O)c2c1  IC50 (XDH (Bos taurus, UniProt P80457); enzyme activity, inhibitor): 103 ± 4.17 µM
C=CC(=O)N1C[C@H](C)N(c2nc(OC[C@@]34CCCN3C[C@H](F)C4)nc3c(F)c(-c4ccc(F)c5sc(N)c(C#N)c45)c(C(F)(F)F)cc23)C[C@H]1C  IC50 (GTPase KRas, GppNHp; with RAF1 RBD (KRAS, Homo sapiens, UniProt P01116, G12C)): 0.018 ± 0.004 µM
COC1CCC(C[C@H](NC(=O)[C@H](CC(C)C)NC(=O)[C@H](Cc2ccc(CN)cc2)NC(=O)[C@H](Cc2ccccc2)N=[N+]=[N-])C(=O)[C@@]2(C)CO2)CC1 (stereo partly drawn)  IC50 (Proteasome subunit beta type-10 (Homo sapiens, UniProt P40306); inhibitor, biochemical): 0.287 µM
CCn1nc(Cl)c2c1-c1cnc(N)c(c1)O[C@H](C)c1cc(F)ccc1-c1nn(C)cc1C2  IC50 (SLK (Homo sapiens, UniProt Q9H2G2); enzyme activity, inhibitor, radiometric): 0.044 µM
Cc1cc(NC2CCN(C)CC2)ccc1-c1cc2c(N3CCC[C@H](C(=O)NCc4ccc(OC(F)(F)F)cc4)C3)ncnc2[nH]1  IC50 (MINK1 (Homo sapiens, UniProt Q8N4C8); enzyme activity, inhibitor, mobility shift): 6.43 µM
C=C(NC(=O)c1csc(-c2nc3c(cc2O)-c2nc(cs2)C(=O)NC(C(C)O)C(=O)NC(=C(C)OC)c2nc(cs2)C(=O)NC2c4nc(cs4)C(=O)NC(COC(=O)c4c5c6c(cccc6n4O)COC(=O)C(OC4CC(C)(O)C(N(C)C)C(C)O4)C2OC5)c2nc-3cs2)n1)C(N)=O (stereo not drawn)  IC50 (SLCO1B1 (Homo sapiens, UniProt Q9Y6L6); transporter uptake, inhibitor; HEK293; 10 min, pH 7.4): 2.8 µM
CCN(CC)CC(=O)Nc1cccc(-n2cc(-c3ccc4ccc(-c5cn(-c6cccc(NC(=O)CN(CC)CC)c6)nn5)cc4c3)nn2)c1  IC50 (KDR; enzyme activity, inhibitor): > 10 µM
COc1cc(OC)c2c(=O)cc(-c3cc(C)c(OCCCN4CCN(C)CC4)c(C)c3)oc2c1  IC50 (Bromodomain-containing protein 3, BD2 (BRD3, Homo sapiens, UniProt Q15059); cell-free assay, TR-FRET): 1.59 µM
O=C(Nc1cc(-c2cccnc2)[nH]n1)c1ccccc1  IC50 (crk3, with CYC6 (Leishmania mexicana, UniProt O15851); enzyme activity, inhibitor, radiometric; added: Leishmania major CYC6 cyclin, 1 µM ATP): 23 µM
O=[N+]([O-])c1ccc(-c2cc(CN3c4ccccc4C=Cc4ccccc43)on2)cc1  IC50 (Urease (Canavalia ensiformis, UniProt P07374); enzyme activity, inhibitor): > 27 µM

Some of these lines once more:
O=C(Nc1cc(-c2cccnc2)[nH]n1)c1ccccc1  IC50 (crk3, with CYC6 (Leishmania mexicana, UniProt O15851); enzyme activity, inhibitor, radiometric; added: Leishmania major CYC6 cyclin, 1 µM ATP): 23 µM
